Experimental data collected from several papers.
Each line is one published result; not all experiments were run side by side. Values joined by “and” are separate records of one study, mostly repeats; a detail may differ. ± marks the error that the study gave.

Compound | target or system | test | system | setting | how to read | endpoint | value
C=CC1=C(C)c2cc3[n-]c(cc4nc(cc5[n-]c(cc1n2)c(C)c5C=C)C(C)=C4CCC(=O)O)c(CCC(=O)O)c3C.[Zn+2] | SH-SY5Y | RNA-seq, measured: SYT12 mRNA | – | 5 µM, 5 h | reference: untreated cells | fold change | 2.94
C=C1C(=O)O[C@@H]2/C=C(\C)CC/C=C(\C)CC[C@@H]12 | iPSC-derived cardiomyocytes | concentration-response fit | – | concentration not given | reference: vehicle | fitted top MyBP-C level | 104%
NC(=O)[C@H](CCCN=C(N)CF)NC(=O)c1ccccc1 | OCI-Ly1 | – | – | 0.5 µM, 120 h | – | viability | 118%
Oc1ccccc1-c1n[nH]cc1-c1ccnc2ccccc12 | IKS1 (Candida albicans) | kinase binding, MIB/MS competition | Candida albicans lysate | 10 µM | reference: DMSO | log2 fold change | 0.2
COc1cc(/C=C/C(=O)N2CCC=CC2=O)cc(OC)c1OC | MDA-MB-468 | qRT-PCR, measured: OSM-R | – | 30 µM, 6 h | reference: time zero | mRNA expression | 92.4 ± 18%
Nc1cccc2c1C(=O)N(C1CCC(=O)NC1=O)C2=O (centres unmarked) | RPMI-8226 | flow cytometry, measured: CD91 | – | concentration not given | reference: comparator compound alone | surface marker level | 57.3%
CC(C)(c1ccc(O)cc1)c1ccc(O)cc1 | HepG2 spheroids | Hoechst flow cytometry | – | 1 µM, 96 h | – | S phase cells | 11.7 ± 4.22%
COc1cnc2cccc(N3CCc4c(cc(Cn5ccnc5C)cc4-c4cn(C)nc4C(F)(F)F)C3=O)c2c1 | JHH7 | cell growth, inhibitor | – | 120 h | – | EC50 | > 30000 nM
CCN(CCO)CCCC(C)Nc1ccnc2cc(Cl)ccc12 (centres unmarked) | hiPSC-derived ventricular cardiomyocytes | action potential, current clamp, externally paced | – | 10 µM | – | maximal upstroke velocity | 19.8 mV/ms and 20.5 mV/ms and 26.6 mV/ms and 23.4 mV/ms and 25.5 mV/ms and 14.8 mV/ms and 15.6 mV/ms and 16.5 mV/ms
Cc1cc(O)c2c(c1)C(=O)c1cccc(O)c1C2=O | HepaRG co-cultured with HK-2 | MTT | – | 66.67 µM, 48 h | reference: untreated control | cell viability | 67.7 ± 6.85%
C=C1C(=O)O[C@H]2[C@H]1CC/C(C)=C/CC[C@@]1(C)O[C@@H]21 | iPSC-derived cardiomyocytes | concentration-response fit | – | – | reference: vehicle | fitted bottom MyBP-C/MYH ratio | 0%
O=C(Nc1ccc2c(O)cc(S(=O)(=O)O)cc2c1)Nc1ccc2c(O)cc(S(=O)(=O)O)cc2c1 | OCI-Ly1 | – | – | 0.1 µM, 120 h | – | viability | 186%
CCn1c(=O)/c(=C2\Sc3cc(Cl)ccc3N2C)s/c1=C\c1scc[n+]1Cc1ccccc1.[Cl-] | iPSC-derived cardiomyocytes | concentration-response fit | – | concentration not given | reference: vehicle | fitted top MyBP-C level | 138%
CN1C(C(=O)Nc2ccccn2)=C(O)c2sc(Cl)cc2S1(=O)=O | COS-7 | – | – | 100 µM, 24 h, 0.1% DMSO, unit not given | reference: control | confluence | 0.82 ± 0.15
[Cl-].[Cl-].[Ru+2].c1cnc2c(c1)ccc1cccnc12.c1cnc2c(c1)ccc1cccnc12.c1csc(-c2ccc(-c3ccc(-c4nc5c6cccnc6c6ncccc6c5[nH]4)s3)s2)c1 | SK-MEL-28 | photocytotoxicity, resazurin | – | visible light, normoxia | – | EC50 | 64 nM
c1ccc2[nH]ccc2c1 | HCT-8 | RNA-seq, measured: AKAP3 | – | concentration not given | – | mRNA level, LS mean | 5.62 counts per million
CCOC(=O)NCCCC(=O)NCCc1ccccc1 | OCI-Ly1 | – | – | 0.5 µM, 120 h | – | viability | 155%
COc1cccc2c1C(=O)c1c(O)c3c(c(O)c1C2=O)C[C@@](O)(C(=O)CO)C[C@@H]3O[C@H]1C[C@H](N)[C@H](O)[C@H](C)O1 | HC-11 | cytotoxicity, WST-1 | – | 72 h, highest tested concentration | – | Emax | 93.1%
O=c1[nH]nc(OCCCc2ccc(Cl)cc2)c(NCc2cccnc2)c1Br | HEK-293T | RNA-seq GSEA, measured: HALLMARK_EPITHELIAL_MESENCHYMAL_TRANSITION | – | concentration not given | direction not given | normalized enrichment score | -1.16
CC(C)[C@H](N)C(=O)N1CCC[C@H]1B(O)O | MV4-11 | annexin V/PI flow cytometry, measured: annexin V+ PI- | – | 2 µM, 24 h | – | early apoptotic cells | 0.92%
Cn1cc(-c2ccc(-c3cncc(Cl)c3N3CCC4(CCNC4=O)CC3)cc2)cn1 | COLO 205 | microarray, measured: C1orf61 | – | concentration not given, 2 h, gene set CROC-4 | reference: untreated cells | fold change in expression | -3
CC(C)NCC(O)c1ccc(O)c(O)c1 (centres unmarked) | mouse ventricular cardiomyocytes | – | – | dose not given, 0.179 s | – | sarcomere length | 1.64 µm
O=C(COc1cccc2c1C(=O)N(C1CCC(=O)NC1=O)C2=O)NCCOCCOCCNS(=O)(=O)Nc1cccc(-c2cn3cc(C(=O)NC4CCC4)ccc3n2)c1 (centres unmarked) | MV4-11 | TMT proteomics, measured: ALDOA | whole proteome | 10 µM, 16 h | reference: DMSO | log2 fold change | -0.057
Cc1nc2ccc(NC(=O)Cc3ccc(OC(F)(F)F)cc3)cc2[nH]1 | sample A patient iPSC-derived NPCs | cell viability protection, MTS | – | 10 µM, 24 h | – | activity class | inactive

Compound | target or system | test | system | setting | how to read | endpoint | value
C=CC(=O)N1CCC(COCC(=O)N2CCN(c3nc(-c4cnc(N)nc4C(F)F)nc(N4CCOC[C@@H]4C)n3)CC2)CC1 | HCC1954 | resazurin growth rate inhibition | – | 72 h | – | GR50 | 5.5 nM
O=C(Nc1cnc2ccccc2c1)c1cc2[nH]ccc2cc1Cl | COS-7 | – | – | 1 µM, 24 h, 0.1% DMSO, unit not given | reference: vehicle control | confluence | 0.94 ± 0.05
CCCCN1CCN(c2ccc3[nH]c(-c4ccc5[nH]c(-c6cc(OC)c(OC)c(OC)c6)nc5c4)nc3c2)CC1 | 786-0 | cell growth, NCI-60 SRB | – | 10 µM, 48 h | – | growth percent | 50.6%
COc1cc(/C=C/c2ccc(O)cc2)cc(OC)c1 | iPSC-derived cardiomyocytes | concentration-response fit | – | – | reference: vehicle | fitted bottom MyBP-C/MYH ratio | 0%
CCn1cc(-c2cc(Cn3ccnc3)cc3c2CCN([C@H](c2cc(OC)ccn2)C2CC2)C3=O)c(C(F)(F)F)n1 | HSC-4 | cell growth, inhibitor | – | 120 h | – | EC50 | > 30000 nM
COc1cc2ncnc(Nc3ccc(Oc4ccccc4)cc3C)c2cc1OC.O=C(O)C(F)(F)F | LoVo (KRAS G13D) | cell viability, resazurin | – | 0.3 µM, 72 h, with: trametinib 0 nM | reference: DMSO | average fractional effect | -0.122%
CC(C)(C)OC(=O)Nc1ccc(-c2cc(C(=O)NCCCCCCC(=O)NO)no2)cc1 | OCI-Ly1 | – | – | 0.5 µM, 120 h | – | viability | 35%
CC/C(=N\NC(=O)NCc1cccc(O)c1)c1ccc(O)c(C)c1O | SK-OV-3 | Western blot, measured: TAZ | – | 10 µM, 3 h, 2D culture, unit not given | reference: β-actin | protein level | 1.57 ± 0.81
CCCC(=O)O | OCI-Ly1 | – | – | 1 µM, 120 h | – | viability | 144%
Cc1cccc(-c2[nH]c(CNc3ccccc3F)nc2-c2ccc3ncnn3c2)n1 | pomalidomide-resistant MM1.S cells | XTT | – | 4 µM | higher = more viable cells | XTT absorbance | 0.6 E-1 and 0.8 E-1 and 1.1 E-1
O=C(/C=C/C=C/C=C/C1CCCCC1)NC1=C[C@@](O)(/C=C/C=C/C=C/C(=O)NC2=C(O)CCC2=O)[C@@H]2O[C@@H]2C1=O | TE-11 | cell growth, CellTiter-Glo | – | 78 h | – | GI50 | 26500 nM
C[C@H]1[C@@H](O)O[C@@H]2O[C@@]3(C)CC[C@H]4[C@H](C)CC[C@@H]1[C@@]24OO3 | THP-1 | annexin V/PI flow cytometry, measured: annexin V-/PI+ | – | 0.8 µM, 24 h | – | necrotic cells | 0%
CN1CCN(C(=O)[C@H](CCCN[C@@H]2C[C@H]2c2ccc(F)cc2)NC(=O)c2ccc(-n3ccnn3)cc2)CC1 | LN-95 and LAPC4 cells | western blot | – | 0.01 to 1 µM, 1 or 3 days | – | H3K4me2 level | increased
Cc1cc(=O)[nH]n1-c1nc(-c2ccc(Cl)cc2)c2c(NC(=O)c3ccccc3)nnc-2[nH]1 | 786-0 | NCI60 SRB | – | 10 µM | – | growth percent | 102%
Cc1cc(/N=N/c2ccc(S(=O)(=O)Nc3ccccn3)cc2)c(N)cc1O | OCI-Ly1 | – | – | 1 µM, 120 h | – | viability | 120%
COc1cc2c(c(O)c1OC)C(=O)c1c(cc(C)c(O)c1OC)C2=O | HepaRG co-cultured with HK-2 | MTT | – | 266.67 µM, 24 h | reference: untreated control | cell viability | 53.9 ± 6.85%
CCn1cc(-c2cc(Cn3ccoc3=N)cc3c2CCN([C@@H](C)c2cc(OC)ccn2)C3=O)c(C(F)(F)F)n1 | SW1417 | cell growth, inhibitor | – | 120 h | – | EC50 | 358 nM
O=C(O)C(Cc1c[nH]c2ccccc12)N1C(=O)c2ccccc2C1=O (centres unmarked) | OCI-Ly1 | – | – | 0.1 µM, 120 h | – | viability | 186%
Cc1ncsc1-c1ccc([C@H](C)NC(=O)[C@H]2C[C@H](O)CN2C(=O)[C@@H](NC(=O)CCCCCCCCCNC(=O)c2ccc3c(c2)[C@H](NC(=O)c2cc(-c4ccc(C(=O)N(C)C)c(O)c4)on2)CC3)C(C)(C)C)cc1 | MV4-11 | TMT proteomics, measured: RNPC3 protein | – | concentration not given, 6 h | reference: DMSO | log2 fold change | -0.425
COc1cc2ncnc(Nc3ccc(Oc4ccccc4)c(C)c3C)c2cc1OC.Cl | LoVo (KRAS G13D) | cell viability, resazurin | – | 1 µM, 72 h, with: trametinib 0 nM | reference: DMSO | fractional effect | 0.263 and 0.267
O=C(CCCN1C(=O)c2cccc3cccc(c23)C1=O)NO | OCI-Ly1 | – | – | 0.1 µM, 120 h | – | viability | 130%
c1ccc(-c2n(Cc3ccc4ccccc4c3)cc[n+]2Cc2ccc3ccccc3c2)cc1 | NCI60 NSCLC cell lines | cell growth | – | – | – | GI50 | ≤ 1780 nM
C[C@H]1[C@H](C)CC[C@]2(C)CC[C@]3(C)C(=CC(=O)[C@@H]4[C@@]5(C)CC[C@@H](O)[C@](C)(C(=O)NCc6cn(-c7cccc(Br)c7)nn6)[C@@H]5CC[C@]43C)[C@H]12 | human PBMCs | flow cytometry | – | 10 µM | reference: CD8+ T cells | PD-1 positive cells | 20.2%

Some of these lines once more:
Compound | target or system | test | system | setting | how to read | endpoint | value
CCCC(=O)O | OCI-Ly1 | – | – | 1 µM, 120 h | – | viability | 144%
C=C1C(=O)O[C@@H]2/C=C(\C)CC/C=C(\C)CC[C@@H]12 | iPSC-derived cardiomyocytes | concentration-response fit | – | concentration not given | reference: vehicle | fitted top MyBP-C level | 104%
Cc1ncsc1-c1ccc([C@H](C)NC(=O)[C@H]2C[C@H](O)CN2C(=O)[C@@H](NC(=O)CCCCCCCCCNC(=O)c2ccc3c(c2)[C@H](NC(=O)c2cc(-c4ccc(C(=O)N(C)C)c(O)c4)on2)CC3)C(C)(C)C)cc1 | MV4-11 | TMT proteomics, measured: RNPC3 protein | – | concentration not given, 6 h | reference: DMSO | log2 fold change | -0.425
Cc1cc(O)c2c(c1)C(=O)c1cccc(O)c1C2=O | HepaRG co-cultured with HK-2 | MTT | – | 66.67 µM, 48 h | reference: untreated control | cell viability | 67.7 ± 6.85%
CCCCN1CCN(c2ccc3[nH]c(-c4ccc5[nH]c(-c6cc(OC)c(OC)c(OC)c6)nc5c4)nc3c2)CC1 | 786-0 | cell growth, NCI-60 SRB | – | 10 µM, 48 h | – | growth percent | 50.6%
